Measurements gathered from unrelated publications.
Compare with care: the assays were run in different laboratories.
Organism: Acinetobacter baumannii

Structure (SMILES)	test	test system	setting	MIC
CCCCCCCC(=O)N[C@@H](CCN)C(=O)N[C@H](C(=O)N[C@@H](CCN)C(=O)N[C@H]1CCNC(=O)[C@H]([C@@H](C)O)NC(=O)[C@H](CCN)NC(=O)[C@H](CCN)NC(=O)[C@H](Cc2ccccc2)NC(=O)[C@@H](CCC(C)C)NC(=O)[C@H](CCN)NC1=O)[C@@H](C)O	broth microdilution	colistin-resistant isolates		1 to 2 µg/mL
CCCCCCCCCC(=O)NCCCC[C@H](NC(=O)[C@H](CCCCN)NC(=O)[C@@H]1CSCC(=O)N[C@@H](CCCCN)C(=O)N[C@@H](CC(C)C)C(=O)N[C@@H](CCCCN)C(=O)NCCCC[C@@H]2NC(=O)[C@H](CCCCN)NC(=O)[C@H](CC(C)C)NC(=O)[C@H](CCCCN)NC(=O)CSC[C@H](NC(=O)[C@H](CC(C)C)NC(=O)[C@H](CC(C)C)NC(=O)[C@H](CCCCN)NC2=O)C(=O)N[C@@H](CC(C)C)C(=O)N[C@@H](CC(C)C)C(=O)N[C@@H](CC(C)C)C(=O)N1)C(N)=O	broth microdilution	ATCC 19606		8 µg/mL
CCCCCCCC(=O)N[C@@H](CCN)C(=O)N[C@H](C(=O)N[C@@H](CCN)C(=O)N[C@H]1CCNC(=O)[C@H]([C@@H](C)O)NC(=O)[C@H](CCN)NC(=O)[C@H](CCN)NC(=O)[C@H](CCC(C)C)NC(=O)[C@@H](Cc2ccccc2)NC(=O)[C@H](CCN)NC1=O)[C@@H](C)O	broth microdilution	ATCC 19606, colistin-susceptible		< 0.125 µg/mL
CC[C@H](C)[C@H](NC(=O)[C@@H](CCCNC(=N)N)NC(=O)[C@H](CCCNC(=N)N)NC(=O)[C@H](CCC(=O)O)NC(=O)[C@H](Cc1c[nH]c2ccccc12)NC(=O)[C@H](CCCNC(=N)N)NC(=O)[C@@H]1CCCN1C(=O)[C@H](CCCNC(=N)N)NC(=O)[C@@H]1CCCN1C(=O)[C@H](CC(C)C)NC(=O)[C@H](Cc1ccc(O)cc1)NC(=O)[C@@H]1CCCN1C(=O)[C@@H]1CCCN1C(=O)[C@H](CCCCN)NC(=O)[C@H](CC(=O)O)NC(=O)[C@@H](N)C(C)C)C(=O)N[C@@H](Cc1ccc(O)cc1)C(=O)N[C@@H](CC(N)=O)C(=O)N[C@H](CCCNC(=N)N)C(N)=O	broth microdilution	DSM 30008	18 h, 37 °C, 25% MHB2	128 µg/mL
CCCCCCCC(=O)N[C@@H](CCN)C(=O)N[C@H](C(=O)N[C@@H](CCN)C(=O)N[C@H]1CCNC(=O)[C@H]([C@@H](C)O)NC(=O)[C@H](CCN)NC(=O)[C@H](CCN)NC(=O)[C@H](CC(C)C)NC(=O)[C@@H](C)NC(=O)[C@H](CCN)NC1=O)[C@@H](C)O	CLSI broth microdilution	246-01-C.246, CAMHB	20 h, 37 °C	256 µg/mL
O=C(c1ccccc1O)c1[nH]c(Cl)c(Cl)c1-n1c(C(=O)c2ccccc2O)cc(Cl)c1Cl	microbial growth	ATCC19606		> 64 µM
CC[C@H](C)[C@H](NC(=O)[C@H](CCCNC(=N)N)NC(=O)[C@H](Cc1c[nH]c2ccccc12)NC(=O)[C@H](Cc1c[nH]c2ccccc12)NC(=O)[C@H](CCCNC(=N)N)NC(=O)[C@@H](N)CCCNC(=N)N)C(=O)N[C@@H](Cc1c[nH]c2ccccc12)C(N)=O			without added MgSO4	8 µg/mL
CC(=O)N[C@H](Cc1ccc(Cl)cc1)C(=O)N[C@@H](CCN)C(=O)N[C@H](C(=O)N[C@@H](CCN)C(=O)N[C@H]1CCNC(=O)[C@H]([C@@H](C)O)NC(=O)[C@H](CCN)NC(=O)[C@H](CCN)NC(=O)[C@H](CC(C)C)NC(=O)[C@@H](Cc2ccccc2)NC(=O)[C@H](CCN)NC1=O)[C@@H](C)O	broth microdilution	ATCC 19606, colistin-susceptible		0.5 to 1 µg/mL
CCCCCCCC(=O)N[C@@H](CCN)C(=O)N[C@H](C(=O)N[C@@H](CCN)C(=O)N[C@H]1CCNC(=O)[C@H](C)NC(=O)[C@H](CCN)NC(=O)[C@H](CCN)NC(=O)[C@H](CC(C)C)NC(=O)[C@@H](Cc2ccccc2)NC(=O)[C@H](CCN)NC1=O)[C@@H](C)O	broth microdilution	ATCC 17978	20 h, 37 °C	1 µg/mL
CC[C@H](C)[C@H](NC(=O)[C@@H](CCCNC(=N)N)NC(=O)[C@H](CCCNC(=N)N)NC(=O)[C@@H]1CCCN1C(=O)[C@@H]1CCCN1C(=O)[C@H](CCCNC(=N)N)NC(=O)[C@@H]1CCCN1C(=O)[C@H](CCCNC(=N)N)NC(=O)[C@@H]1CCCN1C(=O)[C@H](CC(C)C)NC(=O)[C@H](Cc1ccc(O)c([N+](=O)[O-])c1)NC(=O)[C@@H]1CCCN1C(=O)[C@@H]1CCCN1C(=O)[C@H](CCCCN)NC(=O)[C@H](CC(=O)O)NC(=O)[C@@H](N)C(C)C)C(=O)N[C@@H](Cc1ccc(O)cc1)C(=O)N[C@@H](CC(N)=O)C(=O)N[C@H](CCCNC(=N)N)C(N)=O	broth microdilution	DSM 30008	18 h, 37 °C, 25% MHB2	64 µg/mL
N=C(N)NCCC[C@@H]1NC(=O)[C@H](CCCNC(=N)N)NC(=O)[C@H](CCCNC(=N)N)NC(=O)[C@@H](CCCNC(=N)N)NC(=O)[C@H](Cc2ccc3ccccc3c2)NC(=O)[C@H](Cc2ccc3ccccc3c2)NC(=O)[C@H](Cc2ccc3ccccc3c2)NC1=O		NCTC 13304, carbapenem-resistant		16 µg/mL
CCn1c(-c2ccc(OC)cc2)c(-c2ccc(OC)cc2)n(Cc2c(C)cc(C)cc2C)c1=[Se]	broth microdilution	carbapenem-resistant	24 h	> 40 µM
CC(C)C[C@@H]1NC(=O)[C@@H](CC(C)C)NC(=O)[C@H](CCN)NC(=O)[C@@H](NC(=O)[C@H](CCN)NC(=O)[C@@H](NC(=O)CCCCN=[N+]=[N-])[C@@H](C)O)CCNC(=O)[C@H]([C@@H](C)O)NC(=O)[C@H](CCN)NC(=O)[C@H](CCN)NC1=O	broth microdilution	BAA-747		> 121 µM
CC[C@H](C)[C@H](NC(=O)[C@@H](CCCNC(=N)N)NC(=O)[C@H](CCCNC(=N)N)NC(=O)[C@@H]1CCCN1C(=O)[C@@H]1CCCN1C(=O)[C@H](CCCNC(=N)N)NC(=O)[C@@H]1CCCN1C(=O)[C@H](CCCNC(=N)N)NC(=O)[C@@H]1CCCN1C(=O)[C@@H](NC(=O)[C@H](Cc1ccc(O)cc1)NC(=O)[C@@H]1CCCN1C(=O)[C@@H]1CCCN1C(=O)[C@H](CCCCN)NC(=O)[C@H](CC(=O)O)NC(=O)[C@@H](N)C(C)C)C(C)(C)C)C(=O)N[C@@H](Cc1ccc(O)cc1)C(=O)N[C@@H](CC(N)=O)C(=O)N[C@H](CCCNC(=N)N)C(N)=O	broth microdilution	DSM 30008	18 h, 37 °C, 25% MHB2	64 µg/mL
CC[C@H](C)[C@@H]1NC(=O)[C@@H](CC(C)C)NC(=O)[C@H](CCN)NC(=O)[C@@H](NC(=O)[C@@H](CO)NC(=O)[C@@H](NC(=O)[C@H](CCN)NC(=O)c2ccc(-c3ccccc3)cc2)[C@@H](C)O)CCNC(=O)[C@H](CC(C)C)NC(=O)[C@H](CCN)NC(=O)[C@H](CCN)NC1=O	broth microdilution	colistin-resistant isolates		1 to 2 µg/mL
CC[C@H](C)[C@H](NC(=O)[C@@H](CCCNC(=N)N)NC(=O)[C@H](CCCNC(=N)N)NC(=O)[C@@H]1CCCN1C(=O)[C@@H]1CCCN1C(=O)[C@H](CCCNC(=N)N)NC(=O)[C@@H]1CCCN1C(=O)[C@H](CCCNC(=N)N)NC(=O)[C@@H]1CCCN1C(=O)[C@H](CC(C)C)NC(=O)[C@H](Cc1ccc(O)cc1)NC(=O)[C@H](Cc1ccc(O)cc1)NC(=O)[C@@H]1CCCN1C(=O)[C@H](CCCCN)NC(=O)[C@H](CC(=O)O)NC(=O)[C@@H](N)C(C)C)C(=O)N[C@@H](Cc1ccc(O)cc1)C(=O)N[C@@H](CC(N)=O)C(=O)N[C@H](CCCNC(=N)N)C(N)=O	broth microdilution	DSM 30008	18 h, 37 °C, 25% MHB2	16 µg/mL
C#CCNC(=O)[C@H]1NC(=O)[C@H]2NC(=O)[C@H](NC(=O)[C@@H]3NC(=O)[C@H](CC(N)=O)NC(=O)[C@H](NC(=O)[C@@H](CC(C)C)NC)[C@H](O)c4ccc(c(Cl)c4)Oc4cc3cc(c4O[C@@H]3O[C@H](CO)[C@@H](O)[C@H](O)[C@H]3O[C@H]3C[C@](C)(N)[C@H](O)[C@H](C)O3)Oc3ccc(cc3Cl)[C@H]2O)c2ccc(O)c(c2)-c2c(O)cc(O)cc21	broth microdilution	BAA-747, cation-adjusted Mueller-Hinton broth	18 to 20 h, 37 °C, 0.002% polysorbate 80	128 µg/mL
CC[C@H](C)[C@H](N)C(=O)N[C@@H](CCCNC(=N)N)C(=O)N[C@H](C(=O)N[C@@H](Cc1c[nH]c2ccccc12)C(=O)N[C@@H](CCCCN)C(=O)N[C@@H](CCCCN)C(=O)N[C@H](C(=O)N[C@H](C(=O)N[C@@H](CCCNC(=N)N)C(=O)N[C@@H](CCCCN)C(=O)N[C@@H](Cc1c[nH]c2ccccc12)C(=O)N[C@@H](CCCCN)C(=O)N[C@@H](C)C(=O)N[C@H](C(=O)N[C@@H](Cc1c[nH]c2ccccc12)C(=O)N[C@@H](Cc1c[nH]cn1)C(N)=O)[C@@H](C)CC)C(C)C)[C@@H](C)CC)C(C)C	broth dilution	ATCC 19606		< 3.1 µM

A few entries again:
Structure (SMILES)	test	test system	setting	MIC
CC[C@H](C)[C@H](N)C(=O)N[C@@H](CCCNC(=N)N)C(=O)N[C@H](C(=O)N[C@@H](Cc1c[nH]c2ccccc12)C(=O)N[C@@H](CCCCN)C(=O)N[C@@H](CCCCN)C(=O)N[C@H](C(=O)N[C@H](C(=O)N[C@@H](CCCNC(=N)N)C(=O)N[C@@H](CCCCN)C(=O)N[C@@H](Cc1c[nH]c2ccccc12)C(=O)N[C@@H](CCCCN)C(=O)N[C@@H](C)C(=O)N[C@H](C(=O)N[C@@H](Cc1c[nH]c2ccccc12)C(=O)N[C@@H](Cc1c[nH]cn1)C(N)=O)[C@@H](C)CC)C(C)C)[C@@H](C)CC)C(C)C	broth dilution	ATCC 19606		< 3.1 µM
CCCCCCCCCC(=O)NCCCC[C@H](NC(=O)[C@H](CCCCN)NC(=O)[C@@H]1CSCC(=O)N[C@@H](CCCCN)C(=O)N[C@@H](CC(C)C)C(=O)N[C@@H](CCCCN)C(=O)NCCCC[C@@H]2NC(=O)[C@H](CCCCN)NC(=O)[C@H](CC(C)C)NC(=O)[C@H](CCCCN)NC(=O)CSC[C@H](NC(=O)[C@H](CC(C)C)NC(=O)[C@H](CC(C)C)NC(=O)[C@H](CCCCN)NC2=O)C(=O)N[C@@H](CC(C)C)C(=O)N[C@@H](CC(C)C)C(=O)N[C@@H](CC(C)C)C(=O)N1)C(N)=O	broth microdilution	ATCC 19606		8 µg/mL
